Results collected from several papers.
Each line is one published result; not all experiments were run side by side. ± gives the spread as reported.

With `COC(=O)CCn1c2ccc([N+](=O)[O-])cc2c(=O)n1Cc1ccccc1` the IC50 was 900 nM (Leishmania amazonensis; parasite growth, imaging; mouse Peritoneal macrophage; 48 h, intracellular, amastigote).
With `CCCCCCCCCC1CC2CCC3CC(CCCCCCCCC)NC(=N1)N23` (centres unmarked) the IC50 was 5460 nM (Aspergillus fumigatus; microbial growth; ATCC204305).
`COc1ccc(/C=N/N=C/c2ccc([N+](=O)[O-])o2)cc1` has an IC50 of 3150 ± 530 nM (Trypanosoma equiperdum; parasite growth, CellTiter-Glo; IVM-t1 bloodstream form; 72 h).
`O=C1Nc2ccc(Cl)cc2C1=Cc1ccc(-c2cccc(C(=O)NCC3CCNCC3)c2)o1` (mixture of isomers) has an IC50 of 6000 nM (Ancylostoma ceylanicum; motility; adult worms; 24 h).
`CCOC(=O)C(NC(=O)CN1C(=O)/C(=C/c2ccc3c(c2)OCO3)SC1=S)C(C)C` (centres unmarked) gave an IC50 of > 69000 nM (Trypanosoma equiperdum; cell viability; IVM-t1; 72 h).
The IC50 of `NCCn1c2ccc([N+](=O)[O-])cc2c(=O)n1Cc1ccccc1` is reported as 900 nM (Leishmania amazonensis; parasite growth, resazurin; 72 h, promastigote).
`O=[N+]([O-])/C=C/c1ccco1` has an IC50 of 2870 nM (Leishmania amazonensis, L. infantum, L. braziliensis; promastigotes; mean of three species).
`Cc1cc(N2CCC(C#N)(C3(C)CC3)C2=O)cc(C(=O)NCc2cc(F)cc(-c3cnn(C)c3)c2)n1` (racemic) has an IC50 of 15 nM (Plasmodium falciparum; parasite growth, [3H]hypoxanthine incorporation; Cam3.I; 72 h).
`CN(C)CCn1c2ccc([N+](=O)[O-])cc2c(=O)n1Cc1ccccc1` has an IC50 of 34400 nM (Leishmania amazonensis; parasite growth, resazurin; 72 h, promastigote).
With `COc1ccc(/C=N/N=C/c2ccc([N+](=O)[O-])s2)cc1` the IC50 was 2100 ± 410 nM (Trypanosoma equiperdum; parasite growth, CellTiter-Glo; IVM-t1 bloodstream form; 72 h).
For `COC(=O)C1=CO[C@@H](C)[C@@H]2Cn3ccc4c5ccccc5nc-4c3C[C@H]12`, the IC50 was 180 ± 80 nM (Plasmodium falciparum; parasite growth, [3H]-hypoxanthine incorporation; 3D7; 72 h).
The IC50 of `CC(C)(C)c1ccc(OC(=O)/C=C/C#N)cc1` is reported as 20000 nM (Leishmania amazonensis; parasite growth, resazurin; 72 h, promastigote).
`COC1C=COC2(C)Oc3c(C)c(O)c4c(c3C2=O)C2=NC3(CCN(CC(C)C)CC3)NC2=C(NC(=O)C(C)=CC=CC(C)C(O)C(C)C(O)C(C)C(OC(=O)Nc2cscn2)C1C)C4=O` (centres unmarked) has an IC50 of 10 nM (Mycobacteroides abscessus; intracellular bacterial growth; THP-1 derived macrophages, ATCC 19977).
With `CCOC(=O)C(C)NC(=O)CN1C(=O)S/C(=C\c2ccc(F)cc2)C1=O` (centres unmarked) the IC50 was > 64000 nM (Trypanosoma equiperdum; cell viability; IVM-t1; 72 h).
`NC(=O)CCCn1c2ccc([N+](=O)[O-])cc2c(=O)n1Cc1ccccc1` gave an IC50 of 800 nM (Leishmania amazonensis; parasite growth, resazurin; 72 h, promastigote).
For `CC1=CCC2(O)C1C1OC(=O)C(CN(C)C)C1CCC2(C)O` (single isomer, unassigned), the IC50 was 104 µg/mL (Artemia salina; survival; larvae; 24 h).
`O=[N+]([O-])c1ccc(/C=N/N=C/c2ccc(OCc3ccccc3)cc2)o1` has an IC50 of 520 ± 90 nM (Trypanosoma equiperdum; parasite growth, CellTiter-Glo; IVM-t1 bloodstream form; 72 h).
`CCOC(=O)C(NC(=O)CN1C(=O)N/C(=C\c2ccc3c(c2)OCO3)C1=O)C(C)C` (centres unmarked) gave an IC50 of > 66000 nM (Trypanosoma equiperdum; cell viability; IVM-t1; 72 h).
`O=c1c2cc([N+](=O)[O-])ccc2n(CCBr)n1Cc1ccccc1` gave an IC50 of 1200 nM (Leishmania amazonensis; parasite growth, resazurin; 72 h, promastigote).
For `O=[N+]([O-])c1ccc(/C=N/N=C/c2ccc(O)cc2)s1`, the IC50 was 500 ± 90 nM (Trypanosoma equiperdum; parasite growth, CellTiter-Glo; IVM-t1 bloodstream form; 72 h).
For `COCCn1c2ccc([N+](=O)[O-])cc2c(=O)n1Cc1ccccc1`, the IC50 was 1700 nM (Leishmania amazonensis; parasite growth, resazurin; 72 h, promastigote).
`O=[N+]([O-])c1ccc(/C=N/N=C/c2ccc(OCc3ccccc3)cc2)s1` gave an IC50 of 10500 ± 3760 nM (Trypanosoma equiperdum; parasite growth, CellTiter-Glo; IVM-t1 bloodstream form; 72 h).
The IC50 of `CCOC(=O)CNC(=O)CN1C(=O)S/C(=C\c2ccc(OC)c(O)c2)C1=O` is reported as > 64000 nM (Trypanosoma equiperdum; cell viability; IVM-t1; 72 h).
For `C/C(=C\c1ccco1)[N+](=O)[O-]`, the IC50 was 2170 nM (Leishmania amazonensis, L. infantum, L. braziliensis; promastigotes; mean of three species).
`O=[N+]([O-])c1ccc(/C=N/N=C/c2ccc(F)cc2)s1` has an IC50 of 570 ± 110 nM (Trypanosoma equiperdum; parasite growth, CellTiter-Glo; IVM-t1 bloodstream form; 72 h).
`O=c1c2cc([N+](=O)[O-])ccc2n(CCO)n1Cc1ccccc1` gave an IC50 of 1300 nM (Leishmania amazonensis; parasite growth, resazurin; 72 h, promastigote).
`O=[N+]([O-])c1ccc(/C=N/N=C/c2ccc(F)cc2)o1` has an IC50 of 2460 ± 700 nM (Trypanosoma equiperdum; parasite growth, CellTiter-Glo; IVM-t1 bloodstream form; 72 h).
`O=[N+]([O-])/C=C/c1ccc(Br)o1` gave an IC50 of 1330 nM (Leishmania amazonensis, L. infantum, L. braziliensis; promastigotes; mean of three species).
For `CC(C)=CCC/C(C)=C/CNCCNC1C2CC3CC1CC(O)(C3)C2` (centres unmarked), the IC50 was 216000 nM (Mycolicibacterium smegmatis; microbial growth).
`CCOC(=O)C(CC)NC(=O)CN1C(=O)S/C(=C\c2ccc(OC)cc2)C1=O` (centres unmarked) has an IC50 of > 58000 nM (Trypanosoma equiperdum; cell viability; IVM-t1; 72 h).
`C=Cn1c2ccc([N+](=O)[O-])cc2c(=O)n1Cc1ccccc1` has an IC50 of 1000 nM (Leishmania amazonensis; parasite growth, resazurin; 72 h, promastigote).
`O=[N+]([O-])c1ccc(/C=N/N=C/c2ccc(Br)cc2)s1` gave an IC50 of 1040 ± 350 nM (Trypanosoma equiperdum; parasite growth, CellTiter-Glo; IVM-t1 bloodstream form; 72 h).

For quick reference, copied from above:
`COC1C=COC2(C)Oc3c(C)c(O)c4c(c3C2=O)C2=NC3(CCN(CC(C)C)CC3)NC2=C(NC(=O)C(C)=CC=CC(C)C(O)C(C)C(O)C(C)C(OC(=O)Nc2cscn2)C1C)C4=O` (centres unmarked) has an IC50 of 10 nM (Mycobacteroides abscessus; intracellular bacterial growth; THP-1 derived macrophages, ATCC 19977).
With `CCOC(=O)C(C)NC(=O)CN1C(=O)S/C(=C\c2ccc(F)cc2)C1=O` (centres unmarked) the IC50 was > 64000 nM (Trypanosoma equiperdum; cell viability; IVM-t1; 72 h).
`NC(=O)CCCn1c2ccc([N+](=O)[O-])cc2c(=O)n1Cc1ccccc1` gave an IC50 of 800 nM (Leishmania amazonensis; parasite growth, resazurin; 72 h, promastigote).
